Measured values of several laboratories.
Every numbered part comes from another study and shows a few of its results, in no order.
Sequence of UniProt P62344 (whole entry, looked up): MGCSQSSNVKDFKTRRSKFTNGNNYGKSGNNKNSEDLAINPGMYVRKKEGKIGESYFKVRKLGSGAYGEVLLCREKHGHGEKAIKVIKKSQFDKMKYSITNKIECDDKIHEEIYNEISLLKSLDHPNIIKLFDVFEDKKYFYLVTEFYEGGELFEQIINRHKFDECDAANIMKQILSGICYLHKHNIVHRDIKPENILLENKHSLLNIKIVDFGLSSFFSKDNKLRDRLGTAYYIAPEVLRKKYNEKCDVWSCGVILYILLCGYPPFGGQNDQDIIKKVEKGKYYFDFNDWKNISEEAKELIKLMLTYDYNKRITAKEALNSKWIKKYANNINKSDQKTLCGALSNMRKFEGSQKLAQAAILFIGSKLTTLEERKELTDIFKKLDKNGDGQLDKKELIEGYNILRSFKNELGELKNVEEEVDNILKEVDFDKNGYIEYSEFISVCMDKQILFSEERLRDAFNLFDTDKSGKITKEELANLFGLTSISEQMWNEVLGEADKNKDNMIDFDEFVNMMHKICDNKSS
Sequence of UniProt Q13153 (whole entry, looked up): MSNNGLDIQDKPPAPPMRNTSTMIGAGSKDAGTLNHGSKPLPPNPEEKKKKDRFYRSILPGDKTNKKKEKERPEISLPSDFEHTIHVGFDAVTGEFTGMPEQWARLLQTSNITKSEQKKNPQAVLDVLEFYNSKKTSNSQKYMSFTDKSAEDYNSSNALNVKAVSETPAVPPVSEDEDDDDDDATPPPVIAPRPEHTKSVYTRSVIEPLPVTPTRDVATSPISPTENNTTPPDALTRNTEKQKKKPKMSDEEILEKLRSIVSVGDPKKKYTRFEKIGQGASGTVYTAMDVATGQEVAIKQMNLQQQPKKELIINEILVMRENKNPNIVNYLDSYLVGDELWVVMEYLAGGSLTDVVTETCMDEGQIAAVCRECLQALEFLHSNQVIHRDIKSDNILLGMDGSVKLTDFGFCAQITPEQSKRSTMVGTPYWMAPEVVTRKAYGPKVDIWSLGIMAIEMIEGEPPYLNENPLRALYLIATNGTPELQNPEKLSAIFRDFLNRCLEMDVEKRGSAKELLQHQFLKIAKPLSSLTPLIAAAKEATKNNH

Block 1
Cell line: HEK-293T/ACE2
Method: Hoechst nuclei count
Tested at: concentration not given
Time: 16 (unit not given)
Baseline: vehicle
Quantity: viability
SMILES = CC(=O)OCC(=O)[C@@]1(O)CC[C@H]2[C@@H]3CCC4=CC(=O)CC[C@]4(C)[C@@]3(F)[C@@H](O)C[C@@]21C; value = 107%
SMILES = CC(=O)c1c(C)c2cnc(Nc3ccc(N4CCNCC4)cn3)nc2n(C2CCCC2)c1=O; value = 98.6%
SMILES = CC(=O)c1ccc2c(c1)N(CCCN1CCC(CCO)CC1)c1ccccc1S2; value = 102%
SMILES = CS(=O)(=O)CCNCc1ccc(-c2ccc3ncnc(Nc4ccc(OCc5cccc(F)c5)c(Cl)c4)c3c2)o1; value = 84.4%
SMILES = C[C@]12Cc3c[nH]nc3C[C@@H]1CC[C@@H]1[C@@H]2CC[C@@]2(C)[C@H]1CC[C@]2(C)O; value = 99.9%
SMILES = C[C@@H](c1nc(-c2ccc(C#N)cc2)cs1)[C@](O)(Cn1cncn1)c1cc(F)ccc1F; value = 90.8%
SMILES = CC(=O)Nc1cccc(-n2c(=O)n(C3CC3)c(=O)c3c(Nc4ccc(I)cc4F)n(C)c(=O)c(C)c32)c1; value = 99.2%
SMILES = N=C(N)c1ccc(OCCCCCOc2ccc(C(=N)N)cc2)cc1; value = 102%
SMILES = CC(=O)O[C@H]1C(=O)[C@@]2(C)[C@H]([C@H](OC(=O)c3ccccc3)[C@]3(O)C[C@H](OC(=O)[C@H](O)[C@@H](NC(=O)c4ccccc4)c4ccccc4)C(C)=C1C3(C)C)[C@]1(OC(C)=O)CO[C@@H]1C[C@@H]2O; value = 80.8%
SMILES = N=C(N)N/N=C/c1c(Cl)cccc1Cl; value = 98.2%
SMILES = CNNCc1ccc(C(=O)NC(C)C)cc1; value = 98%
SMILES = O=C1Nc2ccc(Cl)cc2[C@@](C#CC2CC2)(C(F)(F)F)O1; value = 96%
SMILES = N=C1CCCN1Cc1[nH]c(=O)[nH]c(=O)c1Cl; value = 106%
SMILES = C[C@H](Cc1cc2c(c(C(N)=O)c1)N(CCCO)CC2)NCCOc1ccccc1OCC(F)(F)F; value = 96.8%

Block 2
Cell line: A-375
Tested at: 100 µM
Time: 18 h
Quantity: viability
Structure (SMILES) = CCN(CC)C(C)C(=O)c1ccccc1 (stereo not drawn); value = 95.1%
Structure (SMILES) = Oc1cc(Cl)ccc1Oc1ccc(Cl)cc1Cl; value = 8.77%
Structure (SMILES) = CCCCC(C#N)(Cn1cncn1)c1ccc(Cl)cc1 (stereo not drawn); value = 32%
Structure (SMILES) = CN(C(=O)/C=C/c1ccoc1)[C@@H]1CC[C@@]2(O)[C@H]3Cc4ccc(O)c5c4[C@@]2(CCN3CC2CC2)[C@H]1O5; value = 95.8%
Structure (SMILES) = Cc1ccc(NC(=O)C2(c3ccc4c(c3)OC(F)(F)O4)CC2)nc1-c1cccc(C(=O)O)c1; value = 60.2%
Structure (SMILES) = COc1ccc(CN(C(=O)[C@@H](N)Cc2c(C)cc(C(N)=O)cc2C)[C@@H](C)c2nc(-c3ccccc3)c[nH]2)cc1C(=O)O; value = 100%

Block 3
Target: Leukocyte tyrosine kinase receptor (LTK, Homo sapiens, UniProt P29376)
Sequence of UniProt P29376 (whole entry, looked up): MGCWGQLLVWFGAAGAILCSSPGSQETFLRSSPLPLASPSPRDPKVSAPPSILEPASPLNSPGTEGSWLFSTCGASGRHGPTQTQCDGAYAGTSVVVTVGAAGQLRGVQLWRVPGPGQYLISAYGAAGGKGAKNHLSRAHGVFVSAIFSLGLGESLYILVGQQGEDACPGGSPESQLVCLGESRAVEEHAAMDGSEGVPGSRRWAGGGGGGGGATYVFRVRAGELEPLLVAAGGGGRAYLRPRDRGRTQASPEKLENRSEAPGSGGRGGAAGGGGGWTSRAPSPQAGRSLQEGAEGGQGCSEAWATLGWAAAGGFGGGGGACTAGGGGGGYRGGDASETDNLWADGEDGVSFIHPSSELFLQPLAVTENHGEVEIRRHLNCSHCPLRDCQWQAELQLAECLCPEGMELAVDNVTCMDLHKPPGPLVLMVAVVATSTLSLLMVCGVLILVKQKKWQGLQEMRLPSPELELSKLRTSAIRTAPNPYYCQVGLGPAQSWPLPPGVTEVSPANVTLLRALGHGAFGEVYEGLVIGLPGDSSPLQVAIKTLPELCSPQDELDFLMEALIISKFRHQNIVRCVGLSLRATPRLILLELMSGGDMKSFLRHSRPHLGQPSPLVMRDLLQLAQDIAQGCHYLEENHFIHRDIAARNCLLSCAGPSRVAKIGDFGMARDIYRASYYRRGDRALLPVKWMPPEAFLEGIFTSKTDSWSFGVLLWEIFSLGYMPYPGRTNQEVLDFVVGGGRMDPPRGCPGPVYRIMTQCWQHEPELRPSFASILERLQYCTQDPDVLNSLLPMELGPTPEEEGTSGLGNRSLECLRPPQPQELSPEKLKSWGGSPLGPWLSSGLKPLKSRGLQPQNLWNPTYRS
Observed: enzyme activity
Action: inhibitor
Method: radiometric
Tested at: 0.5 µM
Quantity: remaining activity
Structure (SMILES) = CC(C)N(CCC(=O)c1ccc2ccccc2c1)Cc1ccccc1; value = 103%
Structure (SMILES) = O=c1c(-c2ccc(F)cc2)c(-c2ccncc2)[nH]n1-c1ccc(Cl)cc1; value = 75.5%
Structure (SMILES) = CCCCc1c(-c2ccc(O)cc2)[nH]c2nccnc12; value = 84.1%
Structure (SMILES) = CCn1cnc2c(Nc3cccc(Cl)c3)nc(N[C@H]3CCCC[C@H]3N)nc21; value = 93.8%
Structure (SMILES) = O=C1c2ccccc2-c2nc3nnnn3nc21; value = 177%
Structure (SMILES) = CNc1cc2c(Nc3cccc(Br)c3)ncnc2cn1; value = 76.2%
Structure (SMILES) = N#CC(c1ccnc(NCCc2cccnc2)n1)c1nc2ccccc2s1 (stereo not drawn); value = 83.1%
Structure (SMILES) = NC(=O)c1cccc(-c2cc(Nc3ccc(OC(F)(F)F)cc3)ncn2)c1; value = 111%
Structure (SMILES) = NC(=O)c1ccc(-c2nc(-c3ccc4c(c3)OCCO4)c(-c3ccccn3)[nH]2)cc1; value = 93.5%
Structure (SMILES) = O=C1NC(=O)/C(=C/c2ccc3c(c2)OC(F)(F)O3)S1; value = 95.5%
Structure (SMILES) = O=C(c1ccccc1)c1ccc(N2CCOCC2)cc1O; value = 107%
Structure (SMILES) = O=Nc1c(-c2c(O)[nH]c3ccccc23)[nH]c2ccccc12; value = 62.3%

Single results of other studies
Observed: cell-free assay
Method: competition with immobilised ligand
Tested at: 1 µM
CRK2: Cyclin-dependent kinase 2 homolog (CRK2, Plasmodium falciparum, UniProt P61075)
Sequence of UniProt P61075 (whole entry, looked up): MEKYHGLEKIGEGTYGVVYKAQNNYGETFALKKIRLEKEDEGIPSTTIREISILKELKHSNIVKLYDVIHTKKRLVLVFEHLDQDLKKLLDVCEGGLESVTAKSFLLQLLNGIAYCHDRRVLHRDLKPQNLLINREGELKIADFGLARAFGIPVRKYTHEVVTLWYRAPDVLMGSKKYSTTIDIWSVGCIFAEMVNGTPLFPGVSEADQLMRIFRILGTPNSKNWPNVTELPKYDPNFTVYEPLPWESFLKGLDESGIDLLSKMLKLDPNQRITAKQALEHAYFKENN
Structure (SMILES) = O=C(Nc1cnc(Oc2ccc(F)cc2)nc1)N1CCc2ncccc2[C@@H]1c1ccc(F)cc1; target = CRK2; remaining binding = 100%
Structure (SMILES) = CCCCN(CCCC)C(=O)CN1C[C@@H](c2cc(OC)c3c(c2)OCO3)[C@H](C(=O)O)[C@H]1CC(C)(C)CCC; target = Serine/threonine-protein kinase PAK 1 (PAK1, Homo sapiens, UniProt Q13153); remaining binding = 95.9%
Structure (SMILES) = CCOCCn1cc(C(=O)Nc2ccc(-n3nc(-c4cccnc4)cc3C(F)(F)F)cn2)ccc1=O; target = Calcium-dependent protein kinase 1 (CDPK1, Plasmodium falciparum, UniProt P62344); remaining binding = 71%
Structure (SMILES) = CO[C@@H](C)c1c(Nc2ccc([C@H](N(C)C(=O)C3CCS(=O)(=O)CC3)C(F)(F)F)cc2)cnc2cc(Cl)nn12; target = CRK2; remaining binding = 100%
